Measurements collected from several papers.
Lines come from different studies, so protocols differ.
Target: Cyclin-dependent kinase 19 (CDK19, Homo sapiens, UniProt Q9BWU1)
Sequence of UniProt Q9BWU1 (whole entry, looked up): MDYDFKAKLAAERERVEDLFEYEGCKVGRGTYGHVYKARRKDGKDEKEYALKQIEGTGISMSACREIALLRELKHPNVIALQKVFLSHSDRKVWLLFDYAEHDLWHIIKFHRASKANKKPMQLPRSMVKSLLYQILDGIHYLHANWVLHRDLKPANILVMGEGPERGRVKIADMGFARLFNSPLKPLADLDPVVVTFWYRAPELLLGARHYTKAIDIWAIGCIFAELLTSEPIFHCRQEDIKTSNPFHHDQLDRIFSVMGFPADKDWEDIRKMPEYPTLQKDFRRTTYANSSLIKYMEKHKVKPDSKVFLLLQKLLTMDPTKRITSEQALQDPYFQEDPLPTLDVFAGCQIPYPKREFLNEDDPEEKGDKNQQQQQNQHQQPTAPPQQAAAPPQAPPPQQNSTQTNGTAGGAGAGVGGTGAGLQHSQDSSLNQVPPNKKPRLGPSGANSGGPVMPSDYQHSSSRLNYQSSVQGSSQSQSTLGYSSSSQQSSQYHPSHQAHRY

| SMILES | test | setting | scale | remaining binding [%] |
| --- | --- | --- | --- | --- |
| C[C@]1(O)CCCN(c2nc(Nc3ccc(S(=O)(=O)N[C@H]4CC[C@H](CN5CCN(c6ccc(C7CCC(=O)NC7=O)cc6F)CC5)CC4)cc3Cl)ncc2C(F)(F)F)C1 (some centres unmarked) | KINOMEscan | 1 µM | – | 80 |
| FC(F)(F)Oc1cccc(-c2cnc3ccc(-c4ccncc4)nn23)c1 | KINOMEscan competition binding | 5 µM | – | 5.5 |
| C[C@@H](c1ccc(-n2cnc3c(N)ncnc32)cc1)N1CCc2nn(C)c(Cc3ccccc3)c2C1=O | KINOMEscan | 0.1 µM | relative to: DMSO control | 35 |
| O=C(c1ccc(Nc2ncc(Cl)c(-c3ccc(Cl)s3)n2)cc1)N1CCC(N2CCCC2)CC1 | binding, KINOMEscan competition binding | 1 µM | relative to: DMSO control | 100 |
| CNS(=O)(=O)c1ccc(Nc2ncc(C(F)(F)F)c(N3CCC[C@](C)(O)C3)n2)c(C)c1 | KINOMEscan | 1 µM | – | 88 |
| Cc1cc([C@@H](C)Nc2ccccc2C(=O)O)c2nc(N3CCC(F)(F)CC3)c(C#N)c(=O)n2c1 | KINOMEscan | 1 µM | relative to: control | 94 |
| N#Cc1ccccc1CSc1nnc2c(n1)[nH]c1ccccc12 | KINOMEscan | 10 µM | relative to: DMSO control | 100 |
| O=C(NCCCN1CCOCC1)c1ccc(Nc2ncc(Cl)c(-c3ccc(Cl)s3)n2)cc1 | binding, KINOMEscan competition binding | 1 µM | relative to: DMSO control | 100 |
| C1=C/COCc2cc(ccc2OCCN2CCCC2)Nc2nccc(n2)-c2cccc(c2)COC/1 | – | 0.1 µM | relative to: DMSO control | 97 |
| Cc1cnc(Nc2ccc(C(=O)N3CCC(N4CCCC4)CC3)cc2)nc1-c1cc2ccccc2s1 | binding, KINOMEscan competition binding | 1 µM | relative to: DMSO control | 100 |
| CNC(=O)[C@@H]1CC[C@@H](n2c(-c3ccc4cnccc4c3)nc3ccc(C(=O)NCc4cccc(C(N)=O)c4)cc32)C1 | KINOMEscan | 1 µM | – | 91 |
| Nc1ncc2c(n1)-c1c([nH]c3ccc(C#CC4CC4)cc13)CCCC2 | scanMAX | 1 µM | – | 85 |
| O=C(NCC1CCOCC1)c1n[nH]cc1NC(=O)c1c(F)cccc1F | scanMAX | 1 µM | relative to: untreated | 100 |
| CCN1CCN(Cc2ccc(C(=O)Nc3ccc(C)c(Oc4ccc5c(c4)CC(=O)N5)c3)cc2C(F)(F)F)CC1 | KINOMEscan | 1 µM | – | 93 |

Repeated from above:
| SMILES | test | setting | scale | remaining binding [%] |
| --- | --- | --- | --- | --- |
| O=C(c1ccc(Nc2ncc(Cl)c(-c3ccc(Cl)s3)n2)cc1)N1CCC(N2CCCC2)CC1 | binding, KINOMEscan competition binding | 1 µM | relative to: DMSO control | 100 |
